Measurements gathered from unrelated publications.
Protocols differ between the studies behind these lines. Numbers after ± are the reported error.

| SMILES | target or system | assay | system | setting | scale | quantity | value |
| --- | --- | --- | --- | --- | --- | --- | --- |
| O=C(Cc1ccc([N+](=O)[O-])cc1)N[C@@H](Cc1c[nH]c2ccccc12)C(=O)NCC1(c2ccccn2)CCCCC1 | human neutrophils | chemotaxis, agonist |  |  |  | EC50 | 1.4 ± 0.37 µM |
| Cc1ccc(CC(=O)c2c(O)c(O)cc3c(O)c(-c4c(C)cc5c(C(=O)Cc6ccc(C)cc6)c(O)c(O)cc5c4O)c(C)cc23)cc1 | PC3-ML | ATP-lite viability |  | 72 h |  | EC50 | 2.5 µM |
| Cc1ccc2nc(-c3ccccc3)c(CNc3cccc(C(F)(F)F)c3)n2c1 | CRL8155 | cell growth or viability |  | 48 h |  | EC50 | > 50 µM |
| CCn1nc2c(c1Nc1nc(-c3ccc(-n4cnc(C)c4)c(OC)n3)cs1)CCCC2 | CHO APPwt/PS1 M146L | Aβ38 production, modulator |  |  |  | EC50 | 0.499 ± 0.203 µM |
| C[n+]1cn(C2OC(COP(=O)([O-])OP(=O)(O)OP(=O)(O)OCC3OC(n4cnc5c(=O)[nH]c(N)nc54)C(O)C3O)C(O)C2O)c2nc(NCc3cc(-c4ccccc4)no3)[nH]c(=O)c21 (centres unmarked) |  | cap-dependent translation, inhibitor | rabbit reticulocyte lysate | added: ARCA-capped luciferase mRNA |  | IC50 | 0.57 ± 0.06 µM |
| COc1cccc(Cc2cc(CCC(=O)NCCNc3cccc4c(S(=O)(=O)O)cccc34)nn(CC(=O)Nc3ccc(Br)cc3)c2=O)c1 | human neutrophils | calcium flux, agonist |  |  |  | EC50 | 0.0018 ± 0.00089 µM |
| CC[C@@](C)(NC(=O)[C@H](C)NC(=O)[C@H]1C[C@@H](O)CN1C(=O)C(C)(C)NC(=O)[C@H](Cc1c[nH]c2ccccc12)NC(=O)[C@H]1CCCN1C(=O)C(C)(C)NC(=O)CNC(=O)C(C)(C)NC(=O)C(C)(C)NC(=O)C(C)(C)NC(=O)[C@](C)(N)CC)C(=O)NCCCC(=O)N[C@@H](CC(C)C)C(=O)N[C@](C)(CC)C(=O)NC(C)(C)C(=O)N[C@](C)(CC)C(=O)N[C@H](CO)Cc1ccccc1 |  | binding, ITC | 10 to 30% methanol | 2 °C, added: POPG |  | Kd | 7.7 µM |
| Cc1ccc(-c2nc3ccc(C)cn3c2CN2CCN(c3cccc(C(F)(F)F)c3)CC2)cc1 | CRL8155 | cell growth or viability |  | 48 h |  | EC50 | 47.6 µM |
| CC(C)[C@H](C(=O)Nc1ncc(F)s1)c1ccc(Cl)cc1 | HEK293 expressing human GPR43 | NF-κB reporter gene, luciferase |  | 6 h, added: 10 ng/mL TNF-α |  | EC50 | 12.1 µM |
| Nc1nc2c(ncn2[C@@H]2O[C@@H]3COP(=O)(O)O[C@H]4[C@@H](F)[C@H](n5cnc6c(N)ncnc65)O[C@@H]4CSP(=O)(O)O[C@H]2[C@@H]3O)c(=O)[nH]1 | THP1-Dual | IRF reporter, agonist |  | 24 h |  | EC50 | 1.57 ± 0.01 µM |
| Cc1ccc2nc(-c3ccc(F)c(F)c3)c(CN3CCN(CCc4cccnc4)CC3)n2c1 | CRL8155 | cell growth or viability |  | 48 h |  | EC50 | > 50 µM |
| CCCCOc1nc(N)c2[nH]c(=O)n(CCCN(CCCN3CCOCC3)Cc3cccc(CC(=O)OC)c3)c2n1 | human PBMC | IFNα induction, inducer, ELISA, measured: IFNα |  | 24 h |  | EC50 | 0.004 µM |
| COc1cc(CNC(=O)C[C@H](C)CCC=C(C)C)ccc1OCc1cn(-c2ccc(F)cc2)nn1 | IGROV-1 ovarian cancer cells | SRB |  | 10 µM, 48 h |  | growth percent | 97.4% |
| CC(C)C[C@H](NC(=O)[C@H](CC(N)=O)NC(=O)[C@H](Cc1ccc(O)cc1)NC(=O)CN(C)C(=O)CCCCC(=O)O)C(=O)N[C@@H](Cc1ccc(O)cc1)C(=O)N[C@@H](CCCNC(=N)N)C(=O)N[C@H](C(=O)N[C@@H](CCCNC(=N)N)C(=O)N[C@@H](CO)C(N)=O)C(C)C | human dermal microvascular endothelial cells |  |  | added: VEGF |  | EC50 | 0.005 µM |
| Cc1nn(-c2ccc(S(=O)(=O)N[C@H](CO)CC(C)C)cc2)c2nn3nnnc3nc12 | PC-3 | PI/Hoechst staining |  | 1 µM, 24 h |  | apoptotic cells | 9 ± 1.4% |
| CCNC(=O)[C@@H]1CCCN1C(=O)[C@@H](NC(=O)[C@H](CCCNC(=N)N)NC(=O)[C@H](Cc1ccc(O)cc1)NC(=O)[C@H](CC(C)C)NC(=O)[C@H](CC(N)=O)NC(=O)[C@H](Cc1ccc(O)cc1)NC(=O)CN(C)C(=O)CCCCC(=O)O)C(C)C | human dermal microvascular endothelial cells |  |  | added: VEGF |  | EC50 | 0.003 µM |
| CCC/C(=C\C1=C(F)C(=O)c2ccccc2C1=O)C(=O)N(CC)CC | Pa03C cells | 3D spheroid co-culture |  | co-culture with CAF19 |  | EC50 | 5.7 µM |
| Cc1cc(-c2ccc(NC(=O)[C@H](CCCCNC(=O)CCN3C(=O)CC(SCCC(=O)N[C@H](Cc4ccccc4)C(=O)N[C@H]4CSSC[C@@H](C(=O)N[C@H](C(=O)O)[C@@H](C)O)NC(=O)[C@H]([C@@H](C)O)NC(=O)[C@H](CCCCN)NC(=O)[C@@H](Cc5c[nH]c6ccccc56)NC(=O)[C@H](Cc5ccc(O)cc5)NC4=O)C3=O)NC(=O)CN3CCN(CC(=O)O)CCN(CC(=O)O)CCN(CC(=O)O)CC3)c(C)c2)ccc1N=Nc1ccc2c(S(=O)(=O)O)cc(S(=O)(=O)O)c(N)c2c1O (some centres unmarked) [lutetium-177 labelled] |  |  | patients with metastatic NETs, whole body |  |  | residence time | 167 ± 8.75 h |

| SMILES | target or system | assay | system | setting | scale | quantity | value |
| --- | --- | --- | --- | --- | --- | --- | --- |
| Cc1ccc2nc(-c3ccccc3)c(CN3CCCCC3)n2c1 | CRL8155 | cell growth or viability |  | 48 h |  | EC50 | > 50 µM |
| C(=C/c1ccccc1)/c1ccccc1 | MOLT-3 | apoptosis, flow cytometry, measured: caspase-3 activity |  | 24 h, 50% apoptosis induction |  | EC50 | 44 µM |
| CCC/C(=C\C1=C(OC)C(=O)c2ccccc2C1=O)C(=O)NOC | Pa03C cells | 3D spheroid co-culture |  | co-culture with CAF19 |  | EC50 | 2.7 µM |
| CC(=O)OCOC(=O)CN(CC(=O)OCOC(C)=O)Cc1c(OC(C)=O)ccc2c1Oc1c(ccc(OC(C)=O)c1CN(CC(=O)OCOC(C)=O)CC(=O)OCOC(C)=O)C21OC(=O)c2ccccc21 | A2780cis | measured: caspase-3/7 |  | added: rucaparib | lower = more synergy | combination index | < 1 |
| Cc1ccc2nc(-c3ccc(F)c(F)c3)c(CN3CCN(c4ccc(F)cc4)CC3)n2c1 | CRL8155 | cell growth or viability |  | 48 h |  | EC50 | 42.9 µM |
| CCC/C(=C\C1=C(C(F)(F)F)C(=O)c2ccccc2C1=O)C(=O)N(CC)CC | Pa03C cells | HIF1α reporter gene, luciferase reporter |  | 24 h, 1% oxygen hypoxia |  | EC50 | 8.3 ± 1.23 µM |
| C[n+]1cn([C@@H]2O[C@H](COP(=O)(O)OP(=O)([O-])C(F)(F)P(=O)(O)O)[C@@H](O)[C@H]2O)c2nc(N)nc(O)c21 |  | cap-dependent translation, inhibitor | rabbit reticulocyte lysate | 60 min, 30 °C, no preincubation |  | IC50 | 1.81 ± 0.13 µM |
| O=Cc1c(O)ccc2ccccc12 | HUVEC | RNA sequencing, measured: MCM10 |  | 75 µM, 24 h | relative to: DMSO | log2 fold change | -3.78 |
| CCc1ccccc1COc1ccccc1C(=O)Nc1cccnc1 | HCEC | sphingomyelin synthesis, inhibitor |  | 6 h |  | EC50 | 3.99 µM |
| CC(=O)Nc1nnc(N2CCN([C@@H](C)c3ccc4c(c3)OCO4)CC2)s1 | HEK293 | protein O-GlcNAcylation, RL2 immunoassay |  |  | higher = accumulation | EC50 | 0.32 µM |
| Cc1ccc(-c2cn3cc(C)ccc3n2)cc1 | CRL8155 | cell growth or viability |  | 48 h |  | EC50 | 41.3 µM |
| CC1=C(C2=C(C)C(=O)c3c(cc(O)c(O)c3C(C)C)C2=O)C(=O)c2cc(O)c(O)c(C(C)C)c2C1=O (racemic) | H23 human lung cancer | cell viability, ATP luminescence |  | 72 h |  | EC50 | 0.38 ± 0.04 µM |
| Cc1ccc2nc(-c3ccccc3)c(CN3CCN(c4ccccc4)CC3)n2c1 | CRL8155 | cell growth or viability |  | 48 h |  | EC50 | > 50 µM |
| COc1cc(CNC(=O)C[C@H](C)CCC=C(C)C)ccc1OCc1cn(-c2ccccc2)nn1 | A549/ATCC | SRB |  | 10 µM, 48 h |  | growth | 94.1% |
| CO[C@@H]1[C@H](O)[C@@H](COP(=O)(O)OP(=O)([O-])C(F)(F)P(=O)(O)OP(=O)(O)OC[C@H]2O[C@@H](n3cnc4c(=O)[nH]c(N)nc43)[C@H](O)[C@@H]2O)O[C@H]1n1c[n+](C)c2c(O)nc(N)nc21 |  | cap-dependent translation, inhibitor | rabbit reticulocyte lysate | 60 min, 30 °C, no preincubation |  | IC50 | 2.16 ± 0.23 µM |
| Cc1ccc2nc(-c3ccccc3)c(CN3CCCC3)n2c1 | CRL8155 | cell growth or viability |  | 48 h |  | EC50 | > 50 µM |
| CCCC[C@H](NC(=O)CCCCCCCNC(=O)CN1CCN(CC(=O)O)CCN(CC(=O)O)CC1)C(=O)N[C@H]1CC(=O)NCCCC[C@@H](C(N)=O)NC(=O)[C@H](Cc2c[nH]c3ccccc23)NC(=O)[C@H](CCCNC(=N)N)NC(=O)[C@@H](Cc2ccccc2)NC(=O)[C@H](Cc2c[nH]cn2)NC1=O [copper-64 labelled] |  |  | C57 mice, muscle | intravenous, 0.37 MBq, 4 h |  | tissue uptake | 0.03 ± 0.01 %ID/g |

Excerpt of the above:
| SMILES | target or system | assay | system | setting | scale | quantity | value |
| --- | --- | --- | --- | --- | --- | --- | --- |
| CCC/C(=C\C1=C(C(F)(F)F)C(=O)c2ccccc2C1=O)C(=O)N(CC)CC | Pa03C cells | HIF1α reporter gene, luciferase reporter |  | 24 h, 1% oxygen hypoxia |  | EC50 | 8.3 ± 1.23 µM |
| Cc1cc(-c2ccc(NC(=O)[C@H](CCCCNC(=O)CCN3C(=O)CC(SCCC(=O)N[C@H](Cc4ccccc4)C(=O)N[C@H]4CSSC[C@@H](C(=O)N[C@H](C(=O)O)[C@@H](C)O)NC(=O)[C@H]([C@@H](C)O)NC(=O)[C@H](CCCCN)NC(=O)[C@@H](Cc5c[nH]c6ccccc56)NC(=O)[C@H](Cc5ccc(O)cc5)NC4=O)C3=O)NC(=O)CN3CCN(CC(=O)O)CCN(CC(=O)O)CCN(CC(=O)O)CC3)c(C)c2)ccc1N=Nc1ccc2c(S(=O)(=O)O)cc(S(=O)(=O)O)c(N)c2c1O (some centres unmarked) [lutetium-177 labelled] |  |  | patients with metastatic NETs, whole body |  |  | residence time | 167 ± 8.75 h |
| CO[C@@H]1[C@H](O)[C@@H](COP(=O)(O)OP(=O)([O-])C(F)(F)P(=O)(O)OP(=O)(O)OC[C@H]2O[C@@H](n3cnc4c(=O)[nH]c(N)nc43)[C@H](O)[C@@H]2O)O[C@H]1n1c[n+](C)c2c(O)nc(N)nc21 |  | cap-dependent translation, inhibitor | rabbit reticulocyte lysate | 60 min, 30 °C, no preincubation |  | IC50 | 2.16 ± 0.23 µM |
